Measured values pooled from the literature.
Parts stem from different laboratories: compare values within a part only. Changes are numbered by the printed parent chain.

Set 1 — target: CCNE1, cyclin fold, Cln2 fusion (human); technique: yeast growth competition, sequencing; sample: yeast; setting: weak parent motif; relative to: not given; direction: higher = stronger binding; endpoint: normalised enrichment score
Parent: KIF20B docking peptide (human); KRAKRKLYTSEIS
L7A: 0.228
R2A: 0.65
E11A: 0.357
T9A: 0.248
R5A: -0.283
K4A: 0.371

Set 2 — target: CEP164, C-terminal peptide (human); technique: DHFR complementation, deep sequencing; sample: yeast; relative to: wild type; direction: higher = weaker binding; endpoint: binding free energy change
Setting: single substitutions, model-inferred values
Parent: PDZK1, PDZ domain 2 (human); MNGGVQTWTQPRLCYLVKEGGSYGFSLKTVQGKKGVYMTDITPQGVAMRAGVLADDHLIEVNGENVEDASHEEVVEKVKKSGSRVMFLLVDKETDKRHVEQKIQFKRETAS; partner HNRVKVYRF
D40Y: 0.419 kcal/mol
R107G: -0.191 kcal/mol
P43M: 0.539 kcal/mol
S81N: 1.03 kcal/mol
G35E: 0.336 kcal/mol
G51Q: 0.911 kcal/mol
K106R: -0.156 kcal/mol
Q6P: -0.212 kcal/mol
S83H: 0.0127 kcal/mol
E73L: 0.0841 kcal/mol
V85P: 1.06 kcal/mol
E100F: -0.126 kcal/mol
W8M: -0.0997 kcal/mol

Set 3 — technique: DHFR PCA, deep sequencing; sample: yeast; with: (+)-ABA 58 µM; relative to: wild-type fitted maximum; direction: higher = stronger binding; endpoint: relative binding score
Target: ABI1, truncated, D143A, DHFR fusion (Arabidopsis thaliana)
Setting: methotrexate growth selection, single substitutions
Parent: PYL1, truncated, DHFR fusion (Arabidopsis thaliana); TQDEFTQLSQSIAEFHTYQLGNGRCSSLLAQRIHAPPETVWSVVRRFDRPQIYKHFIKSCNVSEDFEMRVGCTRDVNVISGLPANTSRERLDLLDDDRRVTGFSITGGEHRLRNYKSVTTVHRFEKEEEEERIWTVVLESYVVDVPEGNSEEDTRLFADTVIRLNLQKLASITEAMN; partner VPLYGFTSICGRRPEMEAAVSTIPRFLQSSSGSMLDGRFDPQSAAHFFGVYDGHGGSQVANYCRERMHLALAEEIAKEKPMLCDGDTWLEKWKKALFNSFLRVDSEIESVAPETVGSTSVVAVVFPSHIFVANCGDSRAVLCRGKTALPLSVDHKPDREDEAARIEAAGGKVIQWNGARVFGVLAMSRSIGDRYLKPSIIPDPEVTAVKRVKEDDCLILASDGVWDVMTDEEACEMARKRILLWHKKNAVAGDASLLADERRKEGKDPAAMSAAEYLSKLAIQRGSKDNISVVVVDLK
F5L: 96.7%
D92I: 40.3%
E139N: 72%
Q19E: 94.3%
R111F: 27%
L93Y: 87.5%
R98M: 82.9%
S117N: 3.87%
Q10V: 83%
F103C: 0.248%
Q2S: 83%
A13T: 75.2%
K58S: 81.5%
G102W: 22.1%
F66N: 71.4%
T101G: -2.46%
F56L: 77.1%

Set 4 — technique: RNA Bind-n-Seq; molecule type: RNA; sample: in vitro; concentration: not given; relative to: input RNA pool; direction: higher = stronger binding; endpoint: bound/input enrichment
Target: RING finger protein unkempt homolog, zinc fingers 1-6, GST-SBP tag (UNK, Homo sapiens, UniProt Q9C0B0, residues 30-357)
Setting: RNA with constant flanks, human and mouse sites, ends assumed
All sequences stand within: GGGAGUUCUACAGUCCGACGAUC … CAACAGAGGAUUGAGCAUCA
Target sequence (chain): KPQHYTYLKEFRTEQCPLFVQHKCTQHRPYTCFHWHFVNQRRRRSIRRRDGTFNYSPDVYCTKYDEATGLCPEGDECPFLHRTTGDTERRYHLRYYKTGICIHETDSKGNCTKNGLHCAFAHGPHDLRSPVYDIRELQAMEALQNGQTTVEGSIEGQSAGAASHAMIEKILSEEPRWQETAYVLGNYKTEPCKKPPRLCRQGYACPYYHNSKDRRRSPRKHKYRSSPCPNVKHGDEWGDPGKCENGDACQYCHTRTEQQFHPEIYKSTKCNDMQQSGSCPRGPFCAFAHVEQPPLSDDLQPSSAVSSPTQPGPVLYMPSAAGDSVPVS
CUUCCGUUUAUUGUUUCACAUAGGUUGUCUAAUACCUUGAGCUUAGAUAUUCAUGAAAAUCAUAGCCUUGCACUUCUAGGAAAGAAGAAAUCAAGCAGCUUAACAUUACCACCCAAAUAC: 1.07 ratio
UCCGUGCCAGCGCCCUGUGCUGUGUCGGCAGCAUUUGAACGUUCCCCUUCCCCGGUCCAUUUACCUGAGGAUCCCAAGGUGGCAGAAAAGCAGAGGGAAACUCAGAGUGUGGACAGACUC: 0.135 ratio
GCUGUGACCCAGAAUAAAACUAAUAUUUCAACAGCAAGUGCCACAGUUUCUGCUGCCACUAGUACUGAAAGCAUUUCUACUAGGAAAGUAUUGCCAAUGUCCAUUGCUAGACAUAAUAUA: 1.31 ratio
CGGUAGUCAGCAAAUUAGAGAGCACAAAUGGCACUAUUGAUCCAGCAGUGACUAGAGAAUGUGAGAGUGACAGCUCUGCUGAUGAGUUAUGUGUAAAGUCUGAACCUUCUGAUACAGCGG: 0.455 ratio
CUUGAGUCUCUGAAACAACAUCAAGAAACAAUUAAUACACUAAAAUCGAAAAUUUCUGAGGAAGUUUCCAGGAAUUUGCAUAUGGAGGAAAAUACAGGAGAAACUAAAGAUGAAUUUCAG: 0.294 ratio
AUUCUGAGGUAUAUCUGCUGCCUUGGAAGACAUAAGAAGCAGUGAUACUCCCUGGCUCGGUUAUUUUCUCCAUACAAUGCACACAUGGUACAAUGAUAGAAGGCAAAAUUGCCACUGUCU: 0.0958 ratio
CAUAUUACAAAAGAUGCUGCAUCUAAUGAAAUUCCAACAUUGACCAAAAAGGAGACAAUUUCUUUGCAAAUGGAAGAGUUUAAUACUGCAAUUUAUUCCAAUGAUGACUUACUUUCUUCU: 0.115 ratio
UCACAGGCAGGUUUAAUGGCCAGUUUAAAACUUAUGCUAUCUGCGGGGCCAUUCGUAGGAUGGUGAGUGUUUCCCUGGGCUUUGCUCAUCACUUCGGGACAUCGUGGACUUUACCGUGCG: 0.136 ratio
CGUGGGAUCUCCUGGAAGGACGAGGCCCGGGUGGUGAAGUGGGCUCUGGAGAAGCUGGAGCUGACCAAGUACGCAGACAAGCCGGCUGGCACCUACAGCGGCGGCAACAAGCGGAAGCUC: 0.181 ratio
UUGUUAAAAUGCUAUUUCCUUUAUUACCUUGGAAACUGACUCAGCCUCAUGUUGCUCCUAAUUAGUGUUUAAGGCUCCCAUGAGUUGCAGAUAAAAUGAUUUAUUUUAACAAGUAGAAGG: 6.57 ratio
AAAUCCAUUUCCGUGUUUAAUGUUAGUUGUUUAUGUGUUAGUAUUCCUGUGUCUACUGUUUUGUUGUUGUUAAUAUGGGUAAAGUGAGCCCUGAAAUACAUGCUAAACAAGACAUGAAAU: 1.46 ratio

Set 5 — technique: protein binding microarray; molecule type: double-stranded DNA, one strand shown; sample: in vitro; concentration: not given; relative to: not given; direction: higher = stronger binding; endpoint: E-score
Target: Histone acetyltransferase KAT6A, winged helix 2, GST fusion (KAT6A, Homo sapiens, UniProt Q92794, residues 85-181)
Setting: 8-mer, flanks averaged, mean of 2 arrays, mostly near background
Construct (chain): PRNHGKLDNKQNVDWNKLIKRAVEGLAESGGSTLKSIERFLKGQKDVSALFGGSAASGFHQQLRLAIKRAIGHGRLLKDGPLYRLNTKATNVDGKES
CCTCAAGG: 0.0556
AACCTTGA: 0.0977
AATCACAT: -0.191
ATTCAACC: -0.0241
CATTGTCC: -0.0918
ACGCAGCT: 0.0582
CCTCGGAA: 0.0935
CCCCCACC: -0.0384
CGGCGGCA: 0.225
ATGGACTG: -0.161
CGATCACA: 0.0912
CCCCGTCC: -0.087
CACGCAGG: 0.131
AGAACGCC: 0.0244
CAACTTCA: -0.145
TTAGCCAA: -0.0289
CACCGTCG: 0.117
TCTGTCCA: 0.104
AGCATTAG: -0.0169
ACACAGAC: 0.0847
ATTGAGTG: 0.0107
ATAGACGA: -0.132
CGCAGCGC: 0.242
GCAAAGCC: 0.109
GCAATGAA: 0.0371

Set 6 — technique: competition protein-binding microarray; molecule type: double-stranded DNA, one strand shown; sample: in vitro; concentration: 2 µM; with: Pho4 competitor, 0.05 µM; direction: higher = stronger binding; endpoint: fluorescence intensity; all sequences stand within: … GTCTTGATTCGCTTGACGCTGCTG
Target: Centromere-binding protein 1, full length, His-tagged (CBF1, Saccharomyces cerevisiae, UniProt P17106, residues 1-351)
UniProt P17106, sequence (whole entry, looked up): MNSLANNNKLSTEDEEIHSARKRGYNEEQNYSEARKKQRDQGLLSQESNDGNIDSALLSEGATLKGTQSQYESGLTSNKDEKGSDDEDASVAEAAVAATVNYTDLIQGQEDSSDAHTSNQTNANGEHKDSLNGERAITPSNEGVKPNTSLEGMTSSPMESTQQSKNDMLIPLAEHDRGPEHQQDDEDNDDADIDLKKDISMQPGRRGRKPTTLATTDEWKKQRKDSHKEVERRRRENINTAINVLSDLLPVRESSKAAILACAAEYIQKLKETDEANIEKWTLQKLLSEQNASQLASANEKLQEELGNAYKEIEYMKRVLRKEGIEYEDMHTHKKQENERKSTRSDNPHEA
Setting: whole 60-bp probe, lowest competitor level
CGGGGTTAAGTTTTTCACGTGGAATGCTTGCAGCAG: 402 a.u.
CTTTCCCGATCTTGTTACGTGGGTGTAGCACATTTG: 80.5 a.u.
CCGAGTCAAGAACATCACATGTTCATAATAACCGCA: 1490 a.u.
TTGTTTTCTTCTTCACACGTGAGATTTTCCGCCGGC: 917 a.u.
TAATAATTAGCCCTTCACGTGATGGCAGCCAGTTGT: 1870 a.u.
GAATAGTTTTCTGTACACGTGGAGGTATAGTTCTCA: 1120 a.u.
TGTTACGTAATAAGCAACGTGCAAACGCATTTTTTG: 118 a.u.
CTAACGAAGGTTTGTCACGGTACTTACAAGCCAAGT: 164 a.u.
CGTCCTAGTGATTGGGCTGTGGGTGCCATGAGGAAG: 79.3 a.u.
TGGGTAGTTATAAGAGGCGTGCTTTTTGGCCATCAA: 84.4 a.u.
TTCAACCCTTCCAACGCCGTGACGGGCCCTCCGGAC: 41.3 a.u.
CTAGTACAGTTCATGATGGTGTGCCATCTGTACAAT: 61.4 a.u.
AAATTACTAAGTTGGGCCGTGGGTGACGCCGTATGA: 62.5 a.u.
AAATTACTAAGTTGTGTAGTGGGTGACGCCGTATGA: 67 a.u.
CTAACGAAGGTTTGATATGTGGGTGACAAGCCAAGT: 74.3 a.u.
CTTTCCCGATCTTGAACGGTGGGTGTAGCACATTTG: 70.3 a.u.
CTAACGAAGGTTTGATCTGTGGGTGACAAGCCAAGT: 69 a.u.
AGACGCTAGACCTGCCATGTGGAGATCCGGGGCGGA: 69.2 a.u.
ATAGTCAATGAAACATTCGTGACGGAACAATGAGAT: 102 a.u.
CCAATTGATGGTCTACACGTTGTTTCAAGTGCATAC: 116 a.u.
CTTTCCCGATCTTGTCACAAGACTTTAGCACATTTG: 136 a.u.
CTTTCCCGATCTTGGATAGTGGGTGTAGCACATTTG: 70.1 a.u.
ATATTCTTAGTATTCCATGTGTCTCGTAATACCTTA: 123 a.u.
CATACCCAACCTTGGTGCGTGGGTGAAGATATTTGT: 68.8 a.u.
CCAATTGCAAAATATCACCTGGGACGACTTCGTTGG: 80.4 a.u.

Some of these lines once more (set 5):
CGATCACA: 0.0912
CCCCGTCC: -0.087
CACGCAGG: 0.131
AGAACGCC: 0.0244
CAACTTCA: -0.145
TTAGCCAA: -0.0289
CACCGTCG: 0.117
TCTGTCCA: 0.104
AGCATTAG: -0.0169
ACACAGAC: 0.0847
ATTGAGTG: 0.0107
ATAGACGA: -0.132
CGCAGCGC: 0.242
